Assay results from different studies.
Lines come from different studies, so protocols differ. Numbers after ± are the reported error.
Organism: Salmonella typhimurium

| Compound | test | system | setting | scale | measurement | result |
| --- | --- | --- | --- | --- | --- | --- |
| OC(CCN1CC=C(c2ccc(F)cc2)CC1)c1ccc(F)c2ccccc12 (stereo not drawn) | SOS/umu test | TA1535/pSK1002 | 0.008 mg/mL, 4 h, with S9, lower range | – | survival | 112% |
| COc1cccc(-c2n[nH]c(SCc3ccccn3)n2)c1OC | Ames test, plate incorporation | TA1535 | 1.0 mg/plate, with rat liver S9 | – | revertant colonies per plate | 17 |
| Nc1ccc2cc3ccccc3cc2c1 | Ames test, initial | TA98 | 1.0 µg/plate, together with: rat liver S9 | relative to: solvent control | revertant ratio | 14.2 |
| O=[N+]([O-])c1ccc(NC2CCNCC2)c(C(F)(F)F)c1 | SOS/umu test | TA1535/pSK1002 | 0.5 mg/mL, 4 h, with S9, full range | – | survival | 83.1% |
| Cc1cc(C(=O)NC(C)(C)COc2cccc3c2C(N)=NS(=O)(=O)N3)cc(C)n1 | Ames test, initial | TA98 | 5000 µg/plate, together with: rat liver S9 | relative to: solvent control | revertant ratio | 1.4 |
| O=C(O)CCCOc1ccc(F)cc1-c1cc(-c2ccccc2C(F)(F)F)n(-c2ccccc2)n1 | Ames test | TA98, TA100, TA1535, TA1537 | 78.1 to 5000 µg/plate, without S9 | – | mutagenicity | negative |
| CNC(=O)c1c(N(C)N=O)ncn1C | plate incorporation | TA98, water | 500 µg/plate, without S9 | – | revertant colonies per plate | 36.3 ± 6 |
| CC(=O)N1CCC(C(=O)N2CCN3C(=O)c4cc(-c5ccccc5)ccc4NC(=O)C3C2)CC1 (stereo not drawn) | – | TA100 | 1581 µg/plate, with rat liver S9 | – | revertants per plate | 107 |
| O=[N+]([O-])c1ccc(N2CCC(NCCC(O)c3ccc(F)c4ccccc34)CC2)c(C(F)(F)F)c1 (stereo not drawn) | SOS response, SOS/umu test | TA1535/pSK1002, TGA medium | 0.000122 mg/mL, 4 h, together with: 10% rat liver S9 | relative to: untreated | induction factor | 0.9 |

Excerpt of the above:
| Compound | test | system | setting | scale | measurement | result |
| --- | --- | --- | --- | --- | --- | --- |
| O=[N+]([O-])c1ccc(NC2CCNCC2)c(C(F)(F)F)c1 | SOS/umu test | TA1535/pSK1002 | 0.5 mg/mL, 4 h, with S9, full range | – | survival | 83.1% |
